# Experimental data gathered from unrelated publications.
# Protocols differ between the studies behind these lines.
Structure (SMILES),target or system,test,system,setting,quantity,value
Cc1ncc2n1-c1ccc(Cl)cc1C(c1ccccc1F)=NC2,,,healthy humans,"oral, dose not given",adverse event Constipation,0%
O=c1ccc2ncc(=O)n3c2n1C[C@H]3CN1CCC(NCc2cc3c(cn2)OCCC3)CC1,,item: general administration site conditions,healthy human participants,"oral, 1500 mg, together with: rifampicin 600 mg",adverse event incidence,0%
O=C(c1ccc(F)c(F)c1Nc1ccc(I)cc1F)N1CC(O)([C@@H]2CCCCN2)C1,,,human patients,"oral, 1 mg/kg, dose expansion",adverse events of special interest,50%
Cc1cccc(Cn2nc(C3CC3)c3c(NC(=O)c4cnc5cc(OCCN6CCN(C)CC6)ccn45)cccc32)n1,,item: Constipation,human pancreatic ductal adenocarcinoma,"oral, dose not given, all-causality",adverse events incidence,25.9%
COc1ccc(C[C@@H]2NC(=O)[C@H]([C@@H](C)O)NC(=O)[C@@H]3[C@@H]4CCN3C(=O)[C@@H]3Cc5cn(c6ccc(F)cc56)CCCCCCN(Cc5ccc(cc5)CCNC(=O)[C@]5(C)CCCN5C2=O)C(=O)CCC(=O)N[C@@H](C)C(=O)N[C@H](CNC(=O)CCCCC[N+](C)(C)C)C(=O)N[C@@H](Cc2cccc(c2)CNC(=O)CO4)C(=O)N3)cc1,,item: breast fibroma,human,Study-003 safety,adverse events,0%
Cn1cncc1[C@@](N)(c1ccc(Cl)cc1)c1ccc2c(c1)c(-c1cccc(Cl)c1)cc(=O)n2C,human coronavirus OC43,virus-induced cell killing,MRC-5,maximum over 10 doses,maximum inhibition,0%
[O-][S+]1CCc2nc(N3CCC(c4ncc(Cl)cn4)CC3)nc(NC3(CO)CCC3)c21 (stereo not shown),,item: Nausea,healthy male humans,12 mg twice daily,adverse event incidence,0%
C[C@@H]1C[C@H]2[C@@H]3CCC4=CC(=O)C=C[C@]4(C)[C@@]3(F)[C@@H](O)C[C@]2(C)[C@@]1(O)C(=O)CO,human coronavirus OC43,virus-induced cell killing,MRC-5,screen,maximum inhibition,5.96%
C[C@@H](c1nc(-c2ccc(C#N)cc2)cs1)[C@](O)(Cn1cncn1)c1cc(F)ccc1F,,,healthy humans,"oral, dose not given, together with: midazolam",adverse event Constipation,8.7%
O=C(Nc1ccccc1)C1CCN(C(=O)Oc2cccnc2)CC1,,item: Overall,healthy female human,"concentration not given, all doses pooled",adverse event incidence,83%

# Excerpt of the above:
Structure (SMILES),target or system,test,system,setting,quantity,value
Cn1cncc1[C@@](N)(c1ccc(Cl)cc1)c1ccc2c(c1)c(-c1cccc(Cl)c1)cc(=O)n2C,human coronavirus OC43,virus-induced cell killing,MRC-5,maximum over 10 doses,maximum inhibition,0%
